Assay results gathered from unrelated publications.
A part holds a random share of what one study measured.
Sequence of UniProt O96017 (whole entry, looked up): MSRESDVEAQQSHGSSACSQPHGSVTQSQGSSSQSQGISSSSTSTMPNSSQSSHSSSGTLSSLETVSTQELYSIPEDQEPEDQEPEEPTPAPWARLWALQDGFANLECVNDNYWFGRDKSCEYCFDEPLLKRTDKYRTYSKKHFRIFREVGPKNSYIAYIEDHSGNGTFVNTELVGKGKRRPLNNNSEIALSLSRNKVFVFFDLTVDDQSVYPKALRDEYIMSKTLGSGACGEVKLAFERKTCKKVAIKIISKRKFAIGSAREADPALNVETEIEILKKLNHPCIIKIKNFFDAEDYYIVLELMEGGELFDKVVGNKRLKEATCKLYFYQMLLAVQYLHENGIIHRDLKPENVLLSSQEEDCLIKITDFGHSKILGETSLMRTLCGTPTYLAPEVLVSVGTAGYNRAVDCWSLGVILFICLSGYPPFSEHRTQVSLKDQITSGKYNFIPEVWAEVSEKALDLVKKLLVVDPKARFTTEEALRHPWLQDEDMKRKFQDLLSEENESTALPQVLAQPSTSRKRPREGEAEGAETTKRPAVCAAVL
Sequence of UniProt P68400 (whole entry, looked up): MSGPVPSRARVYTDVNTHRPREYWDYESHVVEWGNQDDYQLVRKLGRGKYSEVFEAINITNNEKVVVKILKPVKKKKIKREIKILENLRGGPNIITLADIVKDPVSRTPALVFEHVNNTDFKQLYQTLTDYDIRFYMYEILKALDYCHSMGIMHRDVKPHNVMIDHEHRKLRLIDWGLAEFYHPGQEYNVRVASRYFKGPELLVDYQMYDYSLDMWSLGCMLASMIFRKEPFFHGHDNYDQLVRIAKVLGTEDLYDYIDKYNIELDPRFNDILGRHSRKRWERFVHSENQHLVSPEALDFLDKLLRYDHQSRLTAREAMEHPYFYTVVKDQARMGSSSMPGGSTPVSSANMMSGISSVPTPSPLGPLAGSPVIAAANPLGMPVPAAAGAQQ
Sequence of UniProt P78368 (whole entry, looked up): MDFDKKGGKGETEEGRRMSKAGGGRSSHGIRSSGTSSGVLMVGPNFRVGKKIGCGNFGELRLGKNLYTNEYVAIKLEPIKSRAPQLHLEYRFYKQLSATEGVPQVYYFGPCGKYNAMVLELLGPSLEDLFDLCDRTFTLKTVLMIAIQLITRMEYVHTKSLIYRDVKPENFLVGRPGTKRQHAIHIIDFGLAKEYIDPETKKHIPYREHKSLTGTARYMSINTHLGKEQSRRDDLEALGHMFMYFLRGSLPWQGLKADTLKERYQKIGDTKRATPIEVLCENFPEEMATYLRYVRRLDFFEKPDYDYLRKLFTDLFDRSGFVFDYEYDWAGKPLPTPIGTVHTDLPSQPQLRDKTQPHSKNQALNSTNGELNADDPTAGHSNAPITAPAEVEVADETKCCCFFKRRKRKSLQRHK
Sequence of UniProt P07948 (whole entry, looked up): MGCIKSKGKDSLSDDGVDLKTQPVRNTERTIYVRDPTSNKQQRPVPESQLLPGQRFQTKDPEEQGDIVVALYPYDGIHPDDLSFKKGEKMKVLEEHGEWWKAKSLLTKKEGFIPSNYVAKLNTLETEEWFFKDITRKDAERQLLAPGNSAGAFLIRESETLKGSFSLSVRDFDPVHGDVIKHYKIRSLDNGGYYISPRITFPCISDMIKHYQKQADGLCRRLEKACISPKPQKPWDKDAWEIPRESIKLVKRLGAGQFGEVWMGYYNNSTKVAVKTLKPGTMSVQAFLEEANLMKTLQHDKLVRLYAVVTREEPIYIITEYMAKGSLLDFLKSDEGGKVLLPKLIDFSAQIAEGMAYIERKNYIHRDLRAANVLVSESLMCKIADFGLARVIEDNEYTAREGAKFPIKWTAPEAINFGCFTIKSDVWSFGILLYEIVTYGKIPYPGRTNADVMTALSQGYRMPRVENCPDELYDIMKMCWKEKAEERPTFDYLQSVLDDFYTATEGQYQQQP

Block 1 — observed: enzyme activity; action: inhibitor; tested at: 0.5 µM; relative to: control
Target: cGMP-dependent protein kinase 1 (PRKG1, Homo sapiens, UniProt Q13976)
Target sequence (Q13976 1-671): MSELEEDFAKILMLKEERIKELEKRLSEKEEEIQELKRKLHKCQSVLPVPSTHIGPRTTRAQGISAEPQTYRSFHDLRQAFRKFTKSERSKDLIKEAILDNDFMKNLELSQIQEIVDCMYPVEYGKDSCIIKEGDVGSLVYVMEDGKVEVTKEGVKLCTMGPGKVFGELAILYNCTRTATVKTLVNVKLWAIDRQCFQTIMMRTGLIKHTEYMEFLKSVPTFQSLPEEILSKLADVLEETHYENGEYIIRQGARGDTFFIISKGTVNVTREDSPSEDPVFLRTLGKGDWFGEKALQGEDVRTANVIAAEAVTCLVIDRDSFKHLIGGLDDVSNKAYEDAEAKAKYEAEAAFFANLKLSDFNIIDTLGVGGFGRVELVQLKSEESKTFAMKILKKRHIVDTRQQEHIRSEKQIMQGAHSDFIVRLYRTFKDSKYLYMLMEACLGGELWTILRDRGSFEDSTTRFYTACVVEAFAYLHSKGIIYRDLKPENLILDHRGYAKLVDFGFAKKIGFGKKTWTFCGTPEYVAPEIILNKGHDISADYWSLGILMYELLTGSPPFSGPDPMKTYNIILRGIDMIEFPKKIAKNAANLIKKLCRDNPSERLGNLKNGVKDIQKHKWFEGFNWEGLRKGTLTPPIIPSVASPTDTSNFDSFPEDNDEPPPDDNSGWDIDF
The remaining activity of `O=C1c2ccccc2-c2n[nH]c3cccc1c23` is reported as 87.8%.
`c1ccc(-c2[nH]ncc2-c2ccnc3ccccc23)nc1` has a remaining activity of 92.7%.
The remaining activity of `O=c1cc(-c2cccc3c2Sc2ccccc2S3)oc(N2CCOCC2)c1` is reported as 103%.
For `N#Cc1c(NC(=O)c2cccc3ccccc23)sc2c1CCCC2`, the remaining activity was 101%.
For `Cc1nc2cc3nc(-c4cccs4)cnc3cc2n1C`, the remaining activity was 99.7%.
With `CCN(CC)CCNC(=O)c1c(C)[nH]c(/C=C2\C(=O)Nc3ccc(F)cc32)c1C` the remaining activity was 65.3%.
`O=C1Nc2ccc(Cl)cc2C1=Cc1cc(Cl)c(O)c(Cl)c1` gave a remaining activity of 96.8%.
For `COc1cc2ncnc(Nc3cccc(Cl)c3)c2cc1OC`, the remaining activity was 93.8%.
`CN([C@@H](Cc1ccc(OS(=O)(=O)c2cccc3cnccc23)cc1)C(=O)N1CCN(c2ccccc2)CC1)S(=O)(=O)c1cccc2cnccc12` has a remaining activity of 93.6%.
`c1ccc(-c2cnc(Nc3ccc(OCCN4CCCC4)cc3)s2)cc1` gave a remaining activity of 100%.
With `N#C/C(=C\c1ccc(O)c(O)c1)C(=O)NCc1ccccc1` the remaining activity was 89.2%.
`O=C(Nc1cccc(Nc2nccc(Nc3cccc(C(F)(F)F)c3)n2)c1)C1CC1` gave a remaining activity of 99.3%.
For `CCN(CC)CCNC(=O)c1c(C)[nH]c(/C=C2\C(=O)Nc3ccc(Cl)cc32)c1C`, the remaining activity was 64.2%.
With `COc1cc2c(cc1OC)-c1[nH]nc(Nc3cccc(F)c3)c1C2` the remaining activity was 95.2%.
`C[C@@H]1CCN(C(=O)CC#N)C[C@@H]1N(C)c1ncnc2[nH]ccc12` has a remaining activity of 82%.
With `Ic1cccc(CSc2nnc(-c3ccncc3)o2)c1` the remaining activity was 92.1%.
`CCN(CC)C(=O)c1ccc(Nc2nc(OCC3CCCCC3)c3[nH]cnc3n2)cc1` gave a remaining activity of 89.8%.
For `Cc1cn(-c2cc(NC(=O)c3ccc(C)c(Nc4nccc(-c5cccnc5)n4)c3)cc(C(F)(F)F)c2)cn1`, the remaining activity was 90.3%.
The remaining activity of `CCOc1nc(NC(=O)Cc2cc(OC)ccc2OC)cc(N)c1C#N` is reported as 101%.
With `Cn1nc2c3c(cccc31)C(=O)c1ccccc1-2` the remaining activity was 96%.
For `CN(C)C[C@H]1CCn2c(c(C3=C(c4cn(C)c5ccccc45)C(=O)NC3=O)c3ccccc32)C1`, the remaining activity was 81%.
For `O=C(NC(NC(=S)Nc1ccc(F)c([N+](=O)[O-])c1)C(Cl)(Cl)Cl)C(c1ccccc1)c1ccccc1` (stereo not shown), the remaining activity was 100%.
`O=C1C(Cl)=C(N2C(=O)CCC2=O)C(=O)c2ccccc21` gave a remaining activity of 97.8%.
For `Cc1cc2ncc(-c3ccccc3)nc2cc1C`, the remaining activity was 86.2%.
`COc1cc2ncnc(Nc3ccc(O)c(Br)c3)c2cc1OC` gave a remaining activity of 87.1%.

Block 2 — observed: ligand displacement; tested at: 10 µM
Target: 5-hydroxytryptamine receptor 2B (HTR2B, Homo sapiens, UniProt P41595)
Sequence of UniProt P41595 (whole entry, looked up): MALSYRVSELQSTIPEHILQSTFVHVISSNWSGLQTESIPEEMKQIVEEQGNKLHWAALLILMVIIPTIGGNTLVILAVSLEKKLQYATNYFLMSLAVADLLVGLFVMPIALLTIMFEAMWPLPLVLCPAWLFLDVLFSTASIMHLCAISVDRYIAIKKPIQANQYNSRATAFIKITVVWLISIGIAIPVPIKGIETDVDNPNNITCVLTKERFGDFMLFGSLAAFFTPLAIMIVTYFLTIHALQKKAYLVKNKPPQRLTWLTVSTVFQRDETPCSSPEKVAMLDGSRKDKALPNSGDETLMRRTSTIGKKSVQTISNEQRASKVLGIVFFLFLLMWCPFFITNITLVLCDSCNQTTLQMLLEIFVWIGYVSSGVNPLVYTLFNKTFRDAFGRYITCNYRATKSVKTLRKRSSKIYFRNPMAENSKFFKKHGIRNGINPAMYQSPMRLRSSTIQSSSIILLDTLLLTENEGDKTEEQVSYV
`COc1cccc(NC(=O)c2nc3scc(CN(C)Cc4ccccc4)c3c(=O)[nH]2)c1` gave an inhibition of 51%.
For `CCC(F)(F)c1cc(N2CCC(S(C)(=O)=O)CC2)nc2sc(C(N)=O)c(N)c12`, the inhibition was 13.4%.
With `CC(=O)N1CCC(c2ccc(C(=O)NC3=NCCN3)cc2C(F)(F)F)CC1` the inhibition was -2.75%.
With `CO[C@H]1CC[C@H](CNc2ccc(S(=O)(=O)NC(=O)c3ccc(N4CCN(CC5=C(c6ccc(Cl)cc6)CC(C)(C)CC5)CC4)cc3Oc3cnc4[nH]ccc4c3)cc2[N+](=O)[O-])CC1` the inhibition was 3.54%.
With `NS(=O)(=O)c1cc(NC(=O)Cc2ccccc2)ccc1Oc1cccc(Cl)c1` the inhibition was 30.2%.
`C[C@H](c1ccc(F)cc1)N(Cc1cccc(C(=O)O)c1)C(=O)c1cnc2ccccc2c1` has an inhibition of 0.7%.
With `CCC(=NO)C(C)=Cc1ccc(F)c(C)c1` the inhibition was 43.8%.
With `C[C@H](c1ccnc(Nc2nc3ccc(-c4cc(N(C)C)ncn4)cc3[nH]2)c1)N1CCN(C(=O)CC(F)(F)F)CC1` the inhibition was 60%.
`CCOc1cc(N2C3COCC2CN(C(=O)[C@H]2C[C@H](O)CN2c2ccc(Cl)cc2)C3)ccc1Cl` gave an inhibition of 10.5%.
`C[C@@H](NC(=O)Nc1cc2[nH]ncc2c(CO)n1)c1ccccc1` gave an inhibition of 13.1%.
With `Nc1nc(NCc2ccccc2)nc(-c2ccccc2CO)n1` the inhibition was 81%.
For `Cc1cc2c(-c3ccco3)cnc(N[C@@H]3CCN(C)C[C@H]3C(=O)NC3CCCCC3)c2[nH]c1=O`, the inhibition was 9.16%.
`CC(=O)Nc1nc(CN2CCC[C@H](Cc3cc(C)nc(C)c3)C2)cs1` gave an inhibition of 17.9%.
`CN1C(=O)[C@@H](N2CCc3cn(Cc4ccccc4)nc3C2=O)COc2ccccc21` gave an inhibition of 12%.
For `COc1cc(N[C@@H]2CCCC[C@]2(O)C(F)(F)F)ccc1F`, the inhibition was 18%.
`CN1CCN(c2cnc3c(C4CCN(C(=O)c5ccc(OC(F)(F)F)cc5N)CC4)ncnc3c2)CC1` gave an inhibition of 3.56%.
`Nc1cnc(N2CCc3cc(S(=O)(=O)Nc4c(F)cc(Cl)cc4F)cc(N4CCCC4=O)c32)nc1` has an inhibition of 12.9%.
`CN(C)C(=O)Cn1cc(-c2nc([C@@](C)(c3ccc(-c4cnc(N)nc4)cc3)C3CC3)no2)cn1` gave an inhibition of -5.4%.
The inhibition of `CS(=O)(=O)NCC[C@H](NC(=O)c1cncc2c1cnn2-c1ccc(F)cc1)c1ccnc(S(C)(=O)=O)c1` is reported as -5.9%.
With `C[C@H](c1cccc(C#N)c1)n1cc(Cl)cc(C(N)=O)c1=N` the inhibition was 12.3%.
`CN(C)C(=O)c1sc2nc(N3CCC(S(C)(=O)=O)CC3)cc(C(F)(F)F)c2c1N` gave an inhibition of 47.5%.
With `C[C@@H]1CN(c2cc(-c3n[nH]c4ccc(OC5(C)CC5)cc34)ncn2)C[C@H](C)O1` the inhibition was 41.4%.
For `COCCOc1nc(-c2ccc(Cl)nc2)nc2c1CN(C(=O)c1ncn3ccccc13)CC2`, the inhibition was 3.25%.
With `CS(=O)(=O)N1CCCC(NC(=O)[C@H](CCC2CCCCC2)NC(=O)c2ccc(CNC(=O)c3cnc4ccccn34)cc2)C1` (stereo partly shown) the inhibition was 12.2%.
For `N#CC1(c2ccccn2)CCN(Cc2cc(C(=O)N3CCCC3)c(=O)n3ccccc23)CC1`, the inhibition was 5.44%.

Block 3 — tested at: 1 µM
SMILES: C=CC(=O)N1CCC[C@@H](n2nc(-c3ccc(Oc4ccccc4)cc3)c3c(N)ncnc32)C1
The inhibition was 16% (TGF-beta receptor type-1 (TGFBR1, Homo sapiens, UniProt P36897); inhibitor).
Serine/threonine-protein kinase WNK3 (WNK3, Homo sapiens, UniProt Q9BYP7); enzyme activity, inhibitor — inhibition: 75%.
ALK tyrosine kinase receptor (ALK, Homo sapiens, UniProt Q9UM73, L1196M); inhibitor — inhibition: 0%.
For Angiopoietin-1 receptor (TEK, Homo sapiens, UniProt Q02763); inhibitor: inhibition read 49%.
The inhibition was 20% (Serine/threonine-protein kinase mTOR (MTOR, Homo sapiens, UniProt P42345)).
It gave 85% for inhibition (Tyrosine-protein kinase Lyn (LYN, Homo sapiens, UniProt P07948); enzyme activity, inhibitor).
The inhibition was 15% (Casein kinase I isoform gamma-2 (CSNK1G2, Homo sapiens, UniProt P78368); inhibitor).
The inhibition was 37% (Receptor-type tyrosine-protein kinase FLT3, ITD (FLT3, Homo sapiens, UniProt P36888); inhibitor).
Serine/threonine-protein kinase Chk2 (CHEK2, Homo sapiens, UniProt O96017); enzyme activity, inhibitor — inhibition: 21%.
The inhibition was 24% (Casein kinase II subunit alpha (CSNK2A1, Homo sapiens, UniProt P68400); enzyme activity, inhibitor).

Block 4 — observed: enzyme activity; action: inhibitor; tested at: 77 µM
Target: DNA polymerase theta, ATPase domain (POLQ, Homo sapiens, UniProt O75417)
Sequence of UniProt O75417 (whole entry, unmodified, looked up): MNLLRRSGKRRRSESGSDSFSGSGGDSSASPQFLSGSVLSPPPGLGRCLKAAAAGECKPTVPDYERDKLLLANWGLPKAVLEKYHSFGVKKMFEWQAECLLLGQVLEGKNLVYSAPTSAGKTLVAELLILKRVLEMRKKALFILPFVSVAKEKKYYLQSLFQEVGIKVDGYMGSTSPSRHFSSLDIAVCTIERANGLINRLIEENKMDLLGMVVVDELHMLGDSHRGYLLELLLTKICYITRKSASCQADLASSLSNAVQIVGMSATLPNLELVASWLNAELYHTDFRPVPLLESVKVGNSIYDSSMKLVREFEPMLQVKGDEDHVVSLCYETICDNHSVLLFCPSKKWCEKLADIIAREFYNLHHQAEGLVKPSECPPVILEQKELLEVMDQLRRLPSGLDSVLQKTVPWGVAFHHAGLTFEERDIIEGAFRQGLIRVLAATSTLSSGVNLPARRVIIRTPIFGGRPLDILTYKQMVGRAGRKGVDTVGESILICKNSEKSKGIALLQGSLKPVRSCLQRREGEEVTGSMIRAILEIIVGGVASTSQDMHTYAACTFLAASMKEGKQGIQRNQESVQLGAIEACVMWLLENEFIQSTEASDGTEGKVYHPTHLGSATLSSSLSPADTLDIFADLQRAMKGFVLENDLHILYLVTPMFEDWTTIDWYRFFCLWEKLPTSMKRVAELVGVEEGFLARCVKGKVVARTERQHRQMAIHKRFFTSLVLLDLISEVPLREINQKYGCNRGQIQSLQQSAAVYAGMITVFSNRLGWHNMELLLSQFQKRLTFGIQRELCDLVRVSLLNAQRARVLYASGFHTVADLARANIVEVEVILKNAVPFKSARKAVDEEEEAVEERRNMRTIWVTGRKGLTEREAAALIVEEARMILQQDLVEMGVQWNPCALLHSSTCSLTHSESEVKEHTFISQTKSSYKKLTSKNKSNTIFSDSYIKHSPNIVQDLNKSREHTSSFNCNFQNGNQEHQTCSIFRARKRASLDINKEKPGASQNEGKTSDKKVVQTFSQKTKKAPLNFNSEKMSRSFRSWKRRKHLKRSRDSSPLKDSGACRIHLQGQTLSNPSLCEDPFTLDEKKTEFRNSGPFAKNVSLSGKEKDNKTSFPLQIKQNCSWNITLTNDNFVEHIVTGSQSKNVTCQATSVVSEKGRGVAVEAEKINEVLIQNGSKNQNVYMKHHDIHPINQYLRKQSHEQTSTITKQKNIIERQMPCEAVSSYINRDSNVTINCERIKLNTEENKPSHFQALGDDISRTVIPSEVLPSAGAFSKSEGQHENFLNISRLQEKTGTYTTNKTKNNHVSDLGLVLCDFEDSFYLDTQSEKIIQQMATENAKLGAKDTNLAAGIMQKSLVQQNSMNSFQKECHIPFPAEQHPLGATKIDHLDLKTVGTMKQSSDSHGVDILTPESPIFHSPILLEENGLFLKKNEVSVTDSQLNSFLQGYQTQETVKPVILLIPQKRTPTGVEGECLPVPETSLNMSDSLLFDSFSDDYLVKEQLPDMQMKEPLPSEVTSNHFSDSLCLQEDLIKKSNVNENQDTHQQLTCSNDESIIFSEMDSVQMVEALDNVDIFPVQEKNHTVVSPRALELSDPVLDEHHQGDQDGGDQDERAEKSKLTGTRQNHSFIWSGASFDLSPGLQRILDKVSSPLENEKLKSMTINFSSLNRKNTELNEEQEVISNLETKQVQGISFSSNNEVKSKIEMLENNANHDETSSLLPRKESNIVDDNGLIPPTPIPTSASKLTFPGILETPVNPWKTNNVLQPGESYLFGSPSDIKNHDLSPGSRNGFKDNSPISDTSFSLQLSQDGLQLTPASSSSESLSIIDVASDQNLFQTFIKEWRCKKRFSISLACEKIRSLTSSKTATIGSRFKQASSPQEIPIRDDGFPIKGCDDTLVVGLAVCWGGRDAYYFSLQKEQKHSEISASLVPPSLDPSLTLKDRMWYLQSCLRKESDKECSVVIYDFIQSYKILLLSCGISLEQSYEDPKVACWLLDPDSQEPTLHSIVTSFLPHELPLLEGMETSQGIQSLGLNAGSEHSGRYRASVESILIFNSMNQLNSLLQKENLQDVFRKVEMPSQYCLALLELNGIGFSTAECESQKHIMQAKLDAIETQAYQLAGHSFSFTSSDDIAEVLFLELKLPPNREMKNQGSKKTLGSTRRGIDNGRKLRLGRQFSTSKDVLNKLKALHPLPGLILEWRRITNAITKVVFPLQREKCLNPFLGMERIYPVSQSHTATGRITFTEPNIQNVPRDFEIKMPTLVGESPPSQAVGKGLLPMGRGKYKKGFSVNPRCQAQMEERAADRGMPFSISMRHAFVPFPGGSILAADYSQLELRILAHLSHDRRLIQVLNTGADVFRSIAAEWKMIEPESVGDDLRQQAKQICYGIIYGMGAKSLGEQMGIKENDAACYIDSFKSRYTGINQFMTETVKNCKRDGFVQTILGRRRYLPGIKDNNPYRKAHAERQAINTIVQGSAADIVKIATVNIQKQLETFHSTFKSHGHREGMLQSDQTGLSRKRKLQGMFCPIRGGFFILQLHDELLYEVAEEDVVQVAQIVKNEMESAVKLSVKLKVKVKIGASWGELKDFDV
For `O=c1c2ccccc2oc2ccccc12`, the remaining activity was 102%.
For `Cc1ccc(O)c([C@H](CCN(C(C)C)C(C)C)c2ccccc2)c1`, the remaining activity was 100%.
`COc1ccc(-c2nc3cc(C4=NNC(=O)CC4C)ccc3[nH]2)cc1` (stereo not shown) gave a remaining activity of 98.2%.
With `CC[C@H](Nc1ncnc2[nH]cnc12)c1nc2cccc(F)c2c(=O)n1-c1ccccc1` the remaining activity was 95.5%.
`CNC(=C[N+](=O)[O-])NCCSCc1ccc(CN(C)C)o1` has a remaining activity of 101%.
`CN1CC[C@]23c4ccccc4N[C@H]1[C@]21CCN(C)[C@H]3Nc2ccccc21` gave a remaining activity of 102%.
With `O=C(CCCN1CCC(O)(c2ccc(Cl)cc2)CC1)c1ccc(F)cc1` the remaining activity was 103%.
`CCN(CC)C(=O)[C@]1(c2ccccc2)C[C@@H]1CN` (racemic) has a remaining activity of 96.1%.
`C[N+](C)(C)CC=O` has a remaining activity of 97.8%.
For `CN(C)C(=N)NC(=N)N`, the remaining activity was 92.6%.
With `COC(=O)C1=C(C)NC(C)=C(C(=O)OCCN(C)Cc2ccccc2)C1c1cccc([N+](=O)[O-])c1` (stereo not shown) the remaining activity was 100%.
For `CC/C(=C(/CC)c1ccc(O)cc1)c1ccc(O)cc1`, the remaining activity was 101%.
`COc1ccc(C[C@@H](C)NC[C@H](O)c2ccc(O)c(NC=O)c2)cc1` (relative stereo) has a remaining activity of 114%.
The remaining activity of `CC(C)(C)NCC(O)c1ccc(O)c(CO)c1` (stereo not shown) is reported as 99.8%.
With `NCC(=O)Nc1ccc(-n2nc(C(F)(F)F)cc2-c2ccc3c(ccc4ccccc43)c2)cc1` the remaining activity was 92.6%.
With `C[N+](C)(C)CCCCCC[N+](C)(C)C` the remaining activity was 101%.
